Assay results gathered from unrelated publications.
Numbered parts are unrelated; each lists some results of a single study. “And” joins repeats or separate records; there may be more than shown.

Set 1
Target: Protein kinase C gamma type (PRKCG, Homo sapiens, UniProt P05129)
Effect on: enzyme activity
Mode: inhibitor
Tested at: 0.5 µM
Reference: control
`CC(C)N(CCC(=O)c1ccc2ccccc2c1)Cc1ccccc1` has a remaining activity of 92.7%.
For `FC(F)(F)c1ccc(/C=C/c2nc(COc3ccc(CCCCn4ccnn4)cc3)co2)cc1`, the remaining activity was 95.2%.
With `O=C1c2ccccc2-c2nc3nnnn3nc21` the remaining activity was 59.3%.
With `NC(=O)c1ccc(-c2nc(-c3ccc4c(c3)OCCO4)c(-c3ccccn3)[nH]2)cc1` the remaining activity was 93.2%.
With `Nc1nc(Nc2ccc(S(N)(=O)=O)cc2)nn1C(=S)Nc1c(F)cccc1F` the remaining activity was 93%.
`N#C/C(=C(/N)SC1C=CC=CC1)c1cccc(C(O)c2ccncc2)c1` (stereo not drawn) gave a remaining activity of 97.4%.
`CCCCc1c(-c2ccc(O)cc2)[nH]c2nccnc12` gave a remaining activity of 95.1%.
`O=C(c1ccccc1)c1ccc(N2CCOCC2)cc1O` has a remaining activity of 95.6%.
With `CNc1cc2c(Nc3cccc(Br)c3)ncnc2cn1` the remaining activity was 105%.
`c1cc(-c2cnn3cc(-c4ccc(OCCN5CCCCC5)cc4)cnc23)ccn1` gave a remaining activity of 89.6%.
For `Clc1ccc(Nc2nnc(Cc3ccncc3)c3ccccc23)cc1`, the remaining activity was 93.3%.
`O=Nc1c(-c2c(O)[nH]c3ccccc23)[nH]c2ccccc12` has a remaining activity of 96.7%.
With `CC(C)(C)c1nc2c3cc[nH]c(=O)c3c3cc(F)ccc3c2[nH]1` the remaining activity was 79.9%.
For `COc1cc2c(N3CCN(C(=O)Nc4ccc(OC(C)C)cc4)CC3)ncnc2cc1OCCCN1CCCCC1`, the remaining activity was 90.9%.
For `CC(C)n1cnc2c(Nc3cccc(Cl)c3)nc(NCCO)nc21`, the remaining activity was 93.6%.
The remaining activity of `O=C(O)/C=C/c1cc(Br)c(Br)c(Br)c1Br` is reported as 89.4%.
With `O=C1NC(=O)/C(=C/c2ccc3c(c2)OC(F)(F)O3)S1` the remaining activity was 101%.
For `C[C@@H](N)[C@H]1CC[C@H](C(=O)Nc2ccncc2)CC1`, the remaining activity was 117%.
`COc1cc2c(Nc3ccc(Br)cc3F)ncnc2cc1OCC1CCN(C)CC1` has a remaining activity of 93.2%.
For `NC(=O)c1cccc(-c2cc(Nc3ccc(OC(F)(F)F)cc3)ncn2)c1`, the remaining activity was 83.6%.
For `CCN(CC)CCCCN1c2ccccc2Oc2ccc(Cl)cc21`, the remaining activity was 91.1%.
`N#CC(c1ccnc(NCCc2cccnc2)n1)c1nc2ccccc2s1` (stereo not drawn) gave a remaining activity of 92.2%.
`O=c1c(-c2ccc(F)cc2)c(-c2ccncc2)[nH]n1-c1ccc(Cl)cc1` has a remaining activity of 101%.

Set 2
Target: Calcium/calmodulin-dependent protein kinase type II subunit alpha (CAMK2A, Homo sapiens, UniProt Q9UQM7)
Sequence of UniProt Q9UQM7 (whole entry, looked up): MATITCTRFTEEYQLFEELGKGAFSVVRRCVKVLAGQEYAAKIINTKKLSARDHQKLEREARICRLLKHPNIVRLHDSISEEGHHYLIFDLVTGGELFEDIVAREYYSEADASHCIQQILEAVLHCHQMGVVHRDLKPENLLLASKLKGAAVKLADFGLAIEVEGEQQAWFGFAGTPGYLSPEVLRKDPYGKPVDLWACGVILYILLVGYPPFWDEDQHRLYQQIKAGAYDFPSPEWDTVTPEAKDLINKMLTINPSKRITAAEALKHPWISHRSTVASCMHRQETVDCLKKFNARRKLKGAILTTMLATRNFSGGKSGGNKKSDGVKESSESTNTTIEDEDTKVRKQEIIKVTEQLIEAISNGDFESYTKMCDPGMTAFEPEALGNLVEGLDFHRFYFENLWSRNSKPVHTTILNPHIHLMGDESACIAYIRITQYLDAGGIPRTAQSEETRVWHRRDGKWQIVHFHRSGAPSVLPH
Effect on: enzyme activity
Mode: inhibitor
Tested at: 10 µM
`Cc1nc2n(c(=O)c1CCN1CCC(c3noc4cc(F)ccc34)CC1)CCCC2O` (stereo not drawn) gave an inhibition of 6%.
For `Cc1ccc(Cl)c(OCC(O)CNC(C)(C)C)c1` (stereo not drawn), the inhibition was -10%.
With `O=c1[nH]cnc2c([C@@H]3N[C@H](CO)[C@@H](O)[C@H]3O)c[nH]c12` the inhibition was 2%.
For `COc1ccc(C[C@H]2COC(=O)[C@@H]2Cc2ccc(O[C@@H]3O[C@H](CO)[C@@H](O)[C@H](O)[C@H]3O)c(OC)c2)cc1OC`, the inhibition was -114%.
With `CC1=CCC(C(C)C)=CC1` the inhibition was -6%.
With `COc1c2c(cc3oc(CO[C@@H]4O[C@H](CO)[C@@H](O)[C@H](O)[C@H]4O)cc(=O)c13)O[C@H](C(C)(C)O)C2` the inhibition was 16%.
`CC1=CC(=O)[C@H]2C[C@@H]1C2(C)C` has an inhibition of 1%.
For `O=C(O)c1cccc(O)c1O`, the inhibition was -15%.
For `C[N+](C)(C)CCOP(=O)([O-])OC[C@H](O)CO`, the inhibition was 1%.

Set 3
SMILES: O=C1CCC(N2Cc3cc(C4CCN(Cc5ccccc5)CC4)ccc3C2=O)C(=O)N1 (stereo not drawn)
Sample: plasma
Sprague Dawley rat, male; oral, 3.0 mg/kg — MRT(0-inf): 3.13 h.
The MRT(0-inf) was 3.17 h and 3.96 h (male ICR mice; intravenous, 1.0 mg/kg).
The MRT(0-inf) was 3.16 h and 4.39 h (rat Sprague Dawley male; intravenous, 1.0 mg/kg).
ICR mouse, male; intravenous, 1.0 mg/kg — MRT(0-inf): 2.89 h.
It gave 3.24 h and 3.46 h for MRT(0-inf) (rat Sprague Dawley male; oral, 3.0 mg/kg).
The MRT(0-inf) was 1.84 h and 1.98 h (male ICR mice; oral, 3.0 mg/kg).
Sprague Dawley rat, male; intravenous, 1.0 mg/kg — MRT(0-inf): 4.84 h.
ICR mouse, male; oral, 3.0 mg/kg — MRT(0-inf): 1.66 h.
male CD-1 mouse; oral, 3 mg/kg — MRT(0-inf): 1.83 h.

Set 4
Cell line: sample D normal colon organoid
Method: CellTiter-Glo
Tested at: 1 µM
Setting: mean of replicates
Reference: DMSO
For `O=C1CCc2cc(Nc3cc(OC4CCOCC4)c([N+](=O)[O-])cc3Cl)ccc2N1`, the viability was 96%.
For `CO[C@H]1CC[C@H](CNc2ccc(S(=O)(=O)NC(=O)c3ccc(N4CCN(CC5=C(c6ccc(Cl)cc6)CC(C)(C)CC5)CC4)cc3Oc3cnc4[nH]ccc4c3)cc2[N+](=O)[O-])CC1`, the viability was 125%.
`NS(=O)(=O)c1cc(NC(=O)Cc2ccccc2)ccc1Oc1cccc(Cl)c1` has a viability of 96.7%.
For `Cc1c(NC(=O)c2cc(C(N)=O)nc3cc(F)ccc23)c(C(F)(F)F)nn1Cc1ccc(C#N)cc1`, the viability was 26%.
`CCCCN(Cc1ccccc1)C(=O)c1ccc(S(=O)(=O)Nc2ccccc2)cc1` gave a viability of 113%.
For `C[C@@H](NC(=O)Nc1cc2[nH]ncc2c(CO)n1)c1ccccc1`, the viability was 106%.
For `CC(C)(O)c1cncc(-c2nc3ccc(F)cc3n2C2CC2)c1`, the viability was 102%.
For `C[C@H](c1ccc(F)cc1)N(Cc1cccc(C(=O)O)c1)C(=O)c1cnc2ccccc2c1`, the viability was 97.5%.
`CN1CCN(c2cnc3c(C4CCN(C(=O)c5ccc(OC(F)(F)F)cc5N)CC4)ncnc3c2)CC1` gave a viability of 97.3%.
For `Cn1cnc2c(F)c(Nc3ccc(Br)cc3Cl)c(C(=O)NOCCO)cc21`, the viability was 92.3%.
With `C[C@H](c1ccc(F)cc1)N(Cc1ccc(Cl)c(C(=O)O)c1)C(=O)c1cnc2ccccc2c1` the viability was 112%.
`Cc1noc([C@H]2C[C@@H](c3ccc(C(F)(F)F)cc3)CN(C(=O)N3CCS(=O)(=O)C3)C2)n1` has a viability of 91.1%.
For `CCC(=O)N[C@@H]1CC[C@H](C(=O)N(C)c2ccc(-c3nc4ccccc4o3)cc2)C1`, the viability was 89.5%.
`Cc1cc(-n2nc(Cc3cc(F)cc(C(F)(F)F)c3)nc2C)ccc1C(N)=O` has a viability of 89%.
With `Cn1cncc1[C@@](O)(COc1ccc(C#N)cc1-c1ccc(OC(F)(F)F)cc1)c1ccc(C#N)cc1` the viability was 93.8%.
`CC(=O)N1CCC(c2ccc(C(=O)NC3=NCCN3)cc2C(F)(F)F)CC1` gave a viability of 105%.

A few entries again (set 1):
With `NC(=O)c1ccc(-c2nc(-c3ccc4c(c3)OCCO4)c(-c3ccccn3)[nH]2)cc1` the remaining activity was 93.2%.
`N#C/C(=C(/N)SC1C=CC=CC1)c1cccc(C(O)c2ccncc2)c1` (stereo not drawn) gave a remaining activity of 97.4%.
For `CC(C)n1cnc2c(Nc3cccc(Cl)c3)nc(NCCO)nc21`, the remaining activity was 93.6%.
For `C[C@@H](N)[C@H]1CC[C@H](C(=O)Nc2ccncc2)CC1`, the remaining activity was 117%.
`CCCCc1c(-c2ccc(O)cc2)[nH]c2nccnc12` gave a remaining activity of 95.1%.
`O=c1c(-c2ccc(F)cc2)c(-c2ccncc2)[nH]n1-c1ccc(Cl)cc1` has a remaining activity of 101%.
`O=C(c1ccccc1)c1ccc(N2CCOCC2)cc1O` has a remaining activity of 95.6%.
